# Experimental data gathered from unrelated publications.
# Parts stem from different laboratories: compare values within a part only. Changes are numbered by the printed parent chain.

# Study 1
# Target: Interferon regulatory factor 7, full length, phosphomimetic (IRF7, Homo sapiens, UniProt Q92985, residues 1-503, S101K/S471D/S472D/S475D/S476D/S477D/S483D/S484D/S487D)
# Method: protein-binding microarray
# Form: double-stranded DNA, one strand shown
# Matrix: in vitro
# Concentration: 250 nM
# Notes: 60-bp whole probe
# With: salmon DNA 0.4 mg/ml
# Reference: random background probes
# Reading: higher = stronger binding
# Constant ends, left off below: GCCTAGCAC … GTCTTGATTCGCTTGACGCTGCTG
# Target sequence (chain): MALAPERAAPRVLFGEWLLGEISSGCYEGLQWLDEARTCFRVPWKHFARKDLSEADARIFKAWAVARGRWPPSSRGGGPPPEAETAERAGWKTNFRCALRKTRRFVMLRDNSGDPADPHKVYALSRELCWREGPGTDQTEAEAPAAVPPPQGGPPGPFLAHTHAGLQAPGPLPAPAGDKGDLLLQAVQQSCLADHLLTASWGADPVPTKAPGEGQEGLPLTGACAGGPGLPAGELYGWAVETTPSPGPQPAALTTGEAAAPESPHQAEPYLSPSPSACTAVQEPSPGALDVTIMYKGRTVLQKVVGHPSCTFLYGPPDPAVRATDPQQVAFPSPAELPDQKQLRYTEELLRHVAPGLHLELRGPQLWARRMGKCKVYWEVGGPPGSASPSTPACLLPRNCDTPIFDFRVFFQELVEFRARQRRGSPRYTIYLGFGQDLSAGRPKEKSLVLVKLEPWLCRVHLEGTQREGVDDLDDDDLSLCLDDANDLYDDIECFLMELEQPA
Oligonucleotide,log fluorescence
TCACCTTTTTTGTTGTTACTGTGCTAG,1.1 z-score
TTAGGTATCGGGTATCGGGTAGTGCTA,0.754 z-score
GACGGTTTCGGGCCTGGGGACGTGCTA,2.07 z-score
TTAGATATCACTATCGATTAGTGCTAG,0.204 z-score
GACGGACTGGGACTGGCGACGTGCTAG,-0.601 z-score
GACGCTTTCGGTATCGGGACGTGCTAG,2.08 z-score
GACGGTCTAGGACTGGGGACGTGCTAG,-0.129 z-score
GACGAACTGACACTGGAGACGTGCTAG,-0.392 z-score
GACGATATCGGGACTGGAGAAGTGCTA,-0.204 z-score
TCGGTTTCCAAATTGTCTCTGTGCTAG,6.86 z-score
GTCGATCTCAGTATCGAGACGTGCTAG,0.423 z-score
TCACCTCTGTAAGTCAGACTGTGCTAG,0.0176 z-score
TCAAACTTCCCAATGGTACTGTGCTAG,0.291 z-score
GACGATTTCAGCCTGGAGACGTGCTAG,-0.0997 z-score
GACGATATCAGACAGGAGACGTGCTAG,-0.006 z-score
ATAGATATCAGTTTCGATTAGTGCTAG,8.51 z-score
TTAGATTTCGGGTATCGAATAGTGCTA,1.02 z-score
GACGGTTTCGAAACTGGGGACGTGCTA,6.91 z-score

# Study 2
# Target: Ras GTPase-activating protein-binding protein 1, C-terminal RGG region (G3BP1, Homo sapiens, UniProt Q13283)
# Chain of UniProt Q13283 (whole entry, looked up): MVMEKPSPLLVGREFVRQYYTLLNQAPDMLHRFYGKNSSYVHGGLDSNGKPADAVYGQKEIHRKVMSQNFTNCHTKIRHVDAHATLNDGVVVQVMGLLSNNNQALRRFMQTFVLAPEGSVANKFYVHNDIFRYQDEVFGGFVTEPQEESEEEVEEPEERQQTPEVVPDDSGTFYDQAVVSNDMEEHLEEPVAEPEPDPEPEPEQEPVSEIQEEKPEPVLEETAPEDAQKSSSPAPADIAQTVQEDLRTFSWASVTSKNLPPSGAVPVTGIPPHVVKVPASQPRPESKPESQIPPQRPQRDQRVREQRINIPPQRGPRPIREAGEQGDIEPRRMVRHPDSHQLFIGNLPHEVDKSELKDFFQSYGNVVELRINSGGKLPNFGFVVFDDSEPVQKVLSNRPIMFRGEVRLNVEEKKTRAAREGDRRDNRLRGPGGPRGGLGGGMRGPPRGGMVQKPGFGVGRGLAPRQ
# Method: RNA Bind-n-Seq
# Form: RNA
# Matrix: in vitro
# Concentration: 1 µM
# Notes: whole 134-nt RNA, ends assumed
# With: 150 mM KCl
# Reference: input library
# Reading: higher = stronger binding
# Constant ends, left off below: GGGAGUUCUACAGUCCGACGAUC … UGGAAUUCUCGGGUGUCAAGG
Oligonucleotide,log2 enrichment
GCAGGAAGUAAAAACAAAUGGAAAUGCUUCGGAUAGUGGCAGGGGUGGGGGUUGCUAAGGACAGGGUGGGAUGGGAGUGGGUAAAGAGUU,1.44
UGGGAGGUGGAUUUUGUUUAUUUUUUUAGCUCAUUUCCAGGGGUGGGAAUUUUUUUUUAAUAUGUGUCAUGAAUAAAGUUGUUUUUGAAC,3.88
CCUGUGCUACACAUCGUAUGUACCGAAUCGGGAAAAAAGGGGAAAAAAGGAAAAAAGGGGAAAGUAUUAUGUUACGCCGUUCGGAUCUGC,-1.51
AGUCCUGUGCUACACAUCGUAUGUACCGAAUCGGUUUUUUUGGUUUGGUUUUUUUGGAAAGUAUUAUGUUACGCCGUUCGGAUCUGCACU,-2.04
CAAGUCCUGUGCUACACAUCGUAUGUACCGAAUCGGGUUUUUGGGUGGGAAAGGGAAAGUAUUAUGUUACGCCGUUCGGAUCUGCACUUC,1.35
CACAGACAACACGCACCCACACAGACACAGAGGGAAGGGGUUGGGAUGGGGACAGGGUGCACAGCAGGGCGGGGUAGGACCACAGCCCCU,-1.02
AGUCCUGUGCUACACAUCGUAUGUACCGAAUCGGGAAAAAGGGUUUUUGGGAAAGGGAAAGUAUUAUGUUACGCCGUUCGGAUCUGCACU,-0.111
CACAGACAACAAGCACCCACACAGACACAGAGGGAAGGGGUUGGGAUGGGGACAGGGUGCACAGCAGGGCGGGGUAGGACCCCAGCCCCU,-0.00388
UGCGGGCCGAGAAUCGGGAGCUGGGCAAACGCGUACAGGCACUGCAGGAGGAGAGUCGCUACCUACGGGCAGUCUUAGCCAACGAGACUG,-1.73
CAUAGACAACACGCACCCACACAGACACAGAGGGAAGGGGUUGGGAUGGGGACAGGGUGCACAGCAGGGCGGGGUAGGACCCCAGCCCCU,-0.485
UGUGCUACACAUCGUAUGUACCGAAUCGGGGUUUUUGGGGUUUUUUUGGGGUUUUUUUGGGGAAAGUAUUAUGUUACGCCGUUCGGAUCU,0.39
UAACUUUAGAGGAGGAUCUGAUGGAUAUGGCAGUGGACGUGGAUUUGGGGAUGGCUAUAUUGGGUAUGGAGGAGGACCUGGAGGUGGCAA,-0.952
AAGUCCUGUGCUACACAUCGUAUGUACCGAAUCGGGGUGGGGUUUGGGGAAAGGGGAAAGUAUUAUGUUACGCCGUUCGGAUCUGCACUU,3.18
UCCUGUGCUACACAUCGUAUGUACCGAAUCGGAAAAAAGGGGAAAAAAGGAAAAAAGGGGAAAGUAUUAUGUUACGCCGUUCGGAUCUGC,-1.41

# Study 3
# Target: Histone acetyltransferase KAT6A, winged helix 2, GST fusion (KAT6A, Homo sapiens, UniProt Q92794, residues 85-181)
# Method: protein binding microarray
# Form: double-stranded DNA, one strand shown
# Matrix: in vitro
# Concentration: not given
# Notes: 8-mer, flanks averaged, mean of 2 arrays, mostly near background
# Reference: not given
# Reading: higher = stronger binding
# Target sequence (chain): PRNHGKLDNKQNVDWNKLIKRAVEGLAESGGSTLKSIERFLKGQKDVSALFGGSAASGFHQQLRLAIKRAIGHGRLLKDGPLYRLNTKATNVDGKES
Oligonucleotide,E-score
ATATTAGC,-0.0286
CACTTCGA,0.113
ATATGTGA,-0.126
AATCGCTG,-0.0635
ACAAAACA,0.0864
CTGGTGCC,0.022
ACAACCGC,0.0623
CAACTTGG,-0.0618
GAACGTCA,-0.217
CTTCACGC,0.0906
GGTACCAA,-0.0809
GCGATTCC,0.0875
CCACCTCC,-0.0568
ACCTCGTC,-0.046
GTCGAGCA,-0.0117
CAGGCAAC,0.104
ACCATTCC,-0.0676
CATGATAG,0.115
TAGTGTAA,0.0202
CACGTTCA,-0.113
ATAGAGGA,-0.1
AGCATATC,0.16
ACTCCACG,-0.179
GGCGCGCC,0.277
GTCGTCCA,-0.175

# Study 4
# Target: RNA binding protein fox-1 homolog 2, RRM domain, GST-SBP tag (RBFOX2, Homo sapiens, UniProt O43251-10, residues 100-194)
# Method: RNA Bind-n-Seq
# Form: RNA
# Matrix: in vitro
# Concentration: 365 nM
# Notes: natural RNA segment, single round, ends assumed
# Reference: no-protein control
# Reading: higher = stronger binding
# Constant ends, left off below: GGGAGUUCUACAGUCCGACGAUC … UGGAAUUCUCGGGUGCCAA
# Target sequence (chain): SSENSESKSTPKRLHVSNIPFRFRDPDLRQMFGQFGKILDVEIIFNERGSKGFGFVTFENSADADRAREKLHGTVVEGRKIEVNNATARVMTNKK
Oligonucleotide,RBNS enrichment (R)
UUGCACUGGGGCUGGCUGGGUUGGAAAGUGGGCUGGACUUCAGCUGCCUUUCUACCCCCAAUGGCAGCUGCCCCCUUAGCACUCACUGUGUUGGGGAGAGGGUGACGAUU,0.316
UCUUUACUUUUUUAAUAUGUUGGGAUUUUAUUUUAUAUCUGAUGACUCCGAGUGUGUGCCAUCCAUUUGUUAAGUAACUGGCCUUUAGCAGAUCUGUUUCAAAAACAAAU,0.912
UAGCACCAGAUUGGUUCCAAAUAGUUAAUGGAUGUGUGCACAUUUUCUGUUCAGGGAUUAAGACCAGAAUAUCAGUGGAUUUGUUUUCCCCACCAAGUGGCCUCUUAGAC,1.89
GACUUCAAGUCUCAUUUUAUCUGAAAGGUUUUUUUCUCAUUUAAUCUGAUGUGGCAUUUUCGUCAUCUGAAGCAUGAGUGACAAGUUGGGAAUGAUGUGGUGAUUUAGAA,0.834
UUAUAUUCCUUUUUUAUUUGUUCCUUUAGUUUGUUUUGGUUCAGCAGUCAGCAGUUAAGUAUAUAACAUGGCCCGCAAGGACAAUGAAUCCACUCACAUUGCAGAACAAU,0.54
AUGAGAUUUAAUCCACCAAGGAGAAUUGGUUGGGUUUGUUUAGCCUCUAAAGUUAUAGAAAGAAUGAUGGUGGUAGUGGAGAGUAAGCCUCUUUGGGACCCUGCUUAGAG,0.521
CAAACUGUUCAAGUAUUUUUUUUUAAACCUCCCUGUAUAGAAAAAAAUCAUUAAGGAUGUAAAAGCCAUGCUUGCCUAUUUGCUGUAUACAUGUAAUGAAAUUGUAGAUA,2.33
ACUUUGAAUUCUUACAAGCAAAGGUCAUUGUGUUUUUCUUGAAUAGACAUCUAAUAAAUUUUGCUUGGAAGUAUACUUCAGUUUUUCUUCUUGACAUUUAUCUUUAUAAA,0.449
UUGGCACUCUAGUGCUCACAUAAUGGGUGAAGCCAUGGAAAGAGUCUAUGGUGGAUGUUUAUGCUACGGUCCGCCAAUAGAAAAUGGAUUCUAUUAUGACAUGUACCUCG,0.395
AUUUGUGUGUUCAAUCAGAUAAUUCUGACUUCUGCAUUGCCACACACGAGAUAUUCUGCUUUCAGACUUAUUUUAUUGCAACCAGAGAAUAUGAGAAUUUGAUAUGUAAU,0.896
UAAACAGAAAUGCCAAAUUAUUGAUAGUCAUCGUUGCUGCUUCACAUUAGUAUGAGACUGAUGCAGAAGGAAGCCCAUUCUUCGUGUUCAGUGCUGGGGAUGGGGUGGGG,0.355
AAAAAGUACAGCUGCUUGGAUGGAGUUUCUCUCAUCAGAAUAGAAAUAUGCUAGGUGGUCUUCAAGACCUUUUUGAACCUACAGAUUCUAAACCUUAGAGGAAGCCAGAA,0.618

# Study 5
# Target: Sal-like protein 4, full length isoform A (SALL4, Homo sapiens, UniProt Q9UJQ4, residues 1-1053)
# Chain of UniProt Q9UJQ4 (whole entry, looked up): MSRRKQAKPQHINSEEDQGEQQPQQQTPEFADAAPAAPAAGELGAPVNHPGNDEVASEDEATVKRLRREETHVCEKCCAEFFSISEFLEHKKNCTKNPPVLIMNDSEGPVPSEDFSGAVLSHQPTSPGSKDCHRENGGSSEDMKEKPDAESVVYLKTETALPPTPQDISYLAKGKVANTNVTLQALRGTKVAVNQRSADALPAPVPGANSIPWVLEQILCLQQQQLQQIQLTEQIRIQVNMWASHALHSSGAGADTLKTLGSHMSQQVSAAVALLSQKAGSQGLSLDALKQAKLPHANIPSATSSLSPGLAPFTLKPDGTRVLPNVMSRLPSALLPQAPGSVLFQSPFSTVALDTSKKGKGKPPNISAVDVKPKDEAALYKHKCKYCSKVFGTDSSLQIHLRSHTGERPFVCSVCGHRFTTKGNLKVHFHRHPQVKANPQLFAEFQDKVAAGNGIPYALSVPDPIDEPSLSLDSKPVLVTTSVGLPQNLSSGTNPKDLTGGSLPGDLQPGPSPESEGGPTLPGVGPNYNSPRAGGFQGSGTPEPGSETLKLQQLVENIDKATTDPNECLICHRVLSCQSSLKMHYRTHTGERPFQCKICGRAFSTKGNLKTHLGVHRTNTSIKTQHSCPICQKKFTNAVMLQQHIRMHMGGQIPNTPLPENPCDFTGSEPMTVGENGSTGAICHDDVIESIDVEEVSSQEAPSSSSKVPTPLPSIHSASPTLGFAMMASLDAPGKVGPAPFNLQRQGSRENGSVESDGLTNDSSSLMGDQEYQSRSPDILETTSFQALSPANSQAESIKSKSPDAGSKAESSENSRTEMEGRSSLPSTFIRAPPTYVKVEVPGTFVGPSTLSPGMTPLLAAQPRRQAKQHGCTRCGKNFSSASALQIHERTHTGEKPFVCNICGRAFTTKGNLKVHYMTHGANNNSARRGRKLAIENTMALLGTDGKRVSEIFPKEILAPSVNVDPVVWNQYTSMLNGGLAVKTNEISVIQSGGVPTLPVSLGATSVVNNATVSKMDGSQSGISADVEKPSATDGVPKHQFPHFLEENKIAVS
# Method: universal PBM
# Form: double-stranded DNA, one strand shown
# Matrix: in vitro
# Concentration: 600 nM
# Notes: 8-mer, flanks averaged, mean of replicates
# Reading: higher = stronger binding
Oligonucleotide,E-score
GTACACAC,0.0803
AATCCACG,0.0205
CCCATGAA,0.0295
GAAGGGTA,-0.00817
CTGAAGAC,-0.147
AATCGGTC,-0.0584
CGCTGACA,-0.128
GACGAGCA,0.0123
ACAACATA,0.244
CGGATTTA,-0.00771
CCTGTTTC,-0.0333
CGTTGTGA,0.0154
ACGTGTCG,-0.0846
CAGGCCGC,-0.29
ATGGATCG,-0.0606
GACCTTAA,0.0462
AAAGCCGC,-0.178
ACAGGTAG,-0.0467
CGTCAACC,-0.157
CACAGCAG,-0.114
GAAAGGGA,-0.08
CGTGCGGC,-0.263
GAAGTCTC,-0.128
ACCATAAG,0.2

# Study 6
# Target: ABI1, truncated, D143A, DHFR fusion (Arabidopsis thaliana, UniProt P49597)
# Method: DHFR PCA, dose-response
# Matrix: yeast
# Notes: Hill fit, not affinity, not high confidence
# With: (+)-ABA, dose series
# Reading: lower = more sensitive
# Starting sequence: PYL1, truncated, DHFR fusion (Arabidopsis thaliana, UniProt Q8VZS8); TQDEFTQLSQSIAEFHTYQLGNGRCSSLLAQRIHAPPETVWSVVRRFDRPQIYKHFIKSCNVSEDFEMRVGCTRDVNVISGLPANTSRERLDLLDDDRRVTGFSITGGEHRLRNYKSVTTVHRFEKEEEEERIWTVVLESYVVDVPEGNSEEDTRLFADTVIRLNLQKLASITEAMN
Variant,ABA EC50
G102Y,1.27 µM
T101I,23.3 µM
R163F,86.2 µM
V137Y,438 µM
T135Y,109 µM
V121P,2.68 µM
V137S,3.84 µM
H122W,936 µM
R74G,0.225 µM
I57P,8.99 µM
G71I,44.7 µM
P83V,1180 µM
Y115N,898 µM
S117Y,0.727 µM
N149A,79.1 µM
Y141P,0.358 µM
N165Y,375 µM
H110L,917 µM
V161E,0.185 µM

# Excerpt of the above (study 6):
Variant,ABA EC50
H122W,936 µM
N149A,79.1 µM
N165Y,375 µM
H110L,917 µM
R163F,86.2 µM
P83V,1180 µM
S117Y,0.727 µM
V137S,3.84 µM
T101I,23.3 µM
Y115N,898 µM
Y141P,0.358 µM
R74G,0.225 µM
I57P,8.99 µM
T135Y,109 µM
V121P,2.68 µM
G71I,44.7 µM
